Assay results from different studies.
Numbered parts are unrelated; each lists some results of a single study.
Chain of UniProt P48729 (whole entry, looked up): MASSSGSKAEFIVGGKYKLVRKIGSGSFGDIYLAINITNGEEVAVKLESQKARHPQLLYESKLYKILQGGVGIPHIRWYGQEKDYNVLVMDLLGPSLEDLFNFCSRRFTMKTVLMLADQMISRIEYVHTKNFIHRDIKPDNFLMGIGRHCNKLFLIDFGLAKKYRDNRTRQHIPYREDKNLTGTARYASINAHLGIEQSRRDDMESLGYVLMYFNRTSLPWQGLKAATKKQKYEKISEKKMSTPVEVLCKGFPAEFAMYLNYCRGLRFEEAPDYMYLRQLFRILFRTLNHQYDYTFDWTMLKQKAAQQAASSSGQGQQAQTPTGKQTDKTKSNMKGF
Chain of UniProt Q13976 (whole entry, looked up): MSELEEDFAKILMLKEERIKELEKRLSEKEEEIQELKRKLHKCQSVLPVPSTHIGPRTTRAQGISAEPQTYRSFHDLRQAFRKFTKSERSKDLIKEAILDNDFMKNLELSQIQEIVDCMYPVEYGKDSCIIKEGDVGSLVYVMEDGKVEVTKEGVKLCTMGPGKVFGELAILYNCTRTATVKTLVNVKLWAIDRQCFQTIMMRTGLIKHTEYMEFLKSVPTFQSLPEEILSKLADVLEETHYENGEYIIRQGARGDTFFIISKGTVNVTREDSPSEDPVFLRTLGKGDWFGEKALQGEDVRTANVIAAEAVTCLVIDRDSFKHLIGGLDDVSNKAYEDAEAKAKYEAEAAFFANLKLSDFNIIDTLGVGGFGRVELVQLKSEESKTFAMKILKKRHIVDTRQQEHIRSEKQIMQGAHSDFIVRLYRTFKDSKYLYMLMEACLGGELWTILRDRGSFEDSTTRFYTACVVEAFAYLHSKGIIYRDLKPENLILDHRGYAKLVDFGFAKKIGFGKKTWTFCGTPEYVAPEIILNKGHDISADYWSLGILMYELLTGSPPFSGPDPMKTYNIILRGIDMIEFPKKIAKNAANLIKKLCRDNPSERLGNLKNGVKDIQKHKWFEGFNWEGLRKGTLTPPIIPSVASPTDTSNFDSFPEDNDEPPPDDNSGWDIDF
Chain of UniProt P54756 (whole entry, looked up): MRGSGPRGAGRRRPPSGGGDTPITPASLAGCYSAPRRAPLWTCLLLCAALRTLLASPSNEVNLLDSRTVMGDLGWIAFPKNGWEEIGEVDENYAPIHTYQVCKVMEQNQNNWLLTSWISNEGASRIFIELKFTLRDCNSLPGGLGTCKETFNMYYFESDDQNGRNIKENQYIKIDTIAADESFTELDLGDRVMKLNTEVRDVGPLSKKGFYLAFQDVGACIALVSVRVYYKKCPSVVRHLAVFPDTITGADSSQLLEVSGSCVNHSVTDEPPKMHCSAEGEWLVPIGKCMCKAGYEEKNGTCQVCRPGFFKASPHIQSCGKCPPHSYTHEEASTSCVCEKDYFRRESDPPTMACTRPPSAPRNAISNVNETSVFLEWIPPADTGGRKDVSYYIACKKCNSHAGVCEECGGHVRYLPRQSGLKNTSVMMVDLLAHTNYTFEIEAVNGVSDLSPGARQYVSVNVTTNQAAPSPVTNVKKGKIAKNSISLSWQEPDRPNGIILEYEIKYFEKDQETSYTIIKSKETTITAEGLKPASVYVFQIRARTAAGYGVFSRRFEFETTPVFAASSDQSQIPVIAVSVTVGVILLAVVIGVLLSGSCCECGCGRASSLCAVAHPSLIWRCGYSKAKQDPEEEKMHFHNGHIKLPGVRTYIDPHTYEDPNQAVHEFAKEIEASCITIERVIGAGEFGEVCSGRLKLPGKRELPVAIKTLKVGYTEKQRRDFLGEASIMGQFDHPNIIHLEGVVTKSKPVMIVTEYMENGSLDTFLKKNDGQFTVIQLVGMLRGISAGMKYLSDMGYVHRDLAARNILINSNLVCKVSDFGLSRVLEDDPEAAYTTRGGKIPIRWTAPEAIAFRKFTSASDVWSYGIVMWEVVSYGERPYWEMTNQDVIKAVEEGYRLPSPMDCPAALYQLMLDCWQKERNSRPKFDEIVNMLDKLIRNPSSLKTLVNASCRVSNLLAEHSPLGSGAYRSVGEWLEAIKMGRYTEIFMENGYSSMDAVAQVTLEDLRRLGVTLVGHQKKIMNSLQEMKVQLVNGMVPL
Chain of UniProt O15264 (whole entry, looked up): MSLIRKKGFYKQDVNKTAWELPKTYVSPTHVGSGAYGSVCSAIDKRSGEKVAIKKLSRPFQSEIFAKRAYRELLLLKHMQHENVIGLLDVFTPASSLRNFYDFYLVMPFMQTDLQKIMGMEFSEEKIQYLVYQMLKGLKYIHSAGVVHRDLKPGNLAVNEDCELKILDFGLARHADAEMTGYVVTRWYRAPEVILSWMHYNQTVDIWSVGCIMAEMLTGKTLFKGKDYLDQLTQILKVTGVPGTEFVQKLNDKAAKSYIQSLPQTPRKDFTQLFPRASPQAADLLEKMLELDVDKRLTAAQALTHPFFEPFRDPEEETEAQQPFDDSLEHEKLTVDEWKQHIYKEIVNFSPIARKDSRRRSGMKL
Chain of UniProt Q9HBH9 (whole entry, looked up): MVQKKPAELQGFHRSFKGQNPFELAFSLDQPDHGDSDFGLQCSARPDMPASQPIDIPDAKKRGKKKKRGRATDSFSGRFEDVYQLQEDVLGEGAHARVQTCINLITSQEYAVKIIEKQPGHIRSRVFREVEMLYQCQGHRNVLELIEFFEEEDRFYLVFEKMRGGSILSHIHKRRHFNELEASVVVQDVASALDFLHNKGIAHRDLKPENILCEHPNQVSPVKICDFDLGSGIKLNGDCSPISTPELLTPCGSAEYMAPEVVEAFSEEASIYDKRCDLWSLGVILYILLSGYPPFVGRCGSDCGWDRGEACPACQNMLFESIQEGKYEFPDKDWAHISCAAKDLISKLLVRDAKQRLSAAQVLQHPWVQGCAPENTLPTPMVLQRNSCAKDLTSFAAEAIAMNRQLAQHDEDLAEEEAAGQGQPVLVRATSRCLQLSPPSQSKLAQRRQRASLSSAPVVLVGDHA
Chain of UniProt Q9Y243 (whole entry, looked up): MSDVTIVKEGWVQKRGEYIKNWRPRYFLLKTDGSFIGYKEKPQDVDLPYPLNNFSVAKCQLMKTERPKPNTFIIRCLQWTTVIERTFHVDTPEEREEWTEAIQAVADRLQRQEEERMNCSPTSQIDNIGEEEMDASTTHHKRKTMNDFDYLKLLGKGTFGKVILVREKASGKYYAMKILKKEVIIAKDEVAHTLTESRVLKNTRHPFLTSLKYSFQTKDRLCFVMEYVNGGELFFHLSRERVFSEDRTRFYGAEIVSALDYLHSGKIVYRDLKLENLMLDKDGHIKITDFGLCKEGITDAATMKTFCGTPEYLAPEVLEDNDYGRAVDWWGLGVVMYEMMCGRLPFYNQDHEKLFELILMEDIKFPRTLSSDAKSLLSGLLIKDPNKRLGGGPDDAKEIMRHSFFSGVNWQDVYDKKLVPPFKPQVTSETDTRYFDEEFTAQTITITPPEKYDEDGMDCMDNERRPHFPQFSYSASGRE
Chain of UniProt P68400 (whole entry, looked up): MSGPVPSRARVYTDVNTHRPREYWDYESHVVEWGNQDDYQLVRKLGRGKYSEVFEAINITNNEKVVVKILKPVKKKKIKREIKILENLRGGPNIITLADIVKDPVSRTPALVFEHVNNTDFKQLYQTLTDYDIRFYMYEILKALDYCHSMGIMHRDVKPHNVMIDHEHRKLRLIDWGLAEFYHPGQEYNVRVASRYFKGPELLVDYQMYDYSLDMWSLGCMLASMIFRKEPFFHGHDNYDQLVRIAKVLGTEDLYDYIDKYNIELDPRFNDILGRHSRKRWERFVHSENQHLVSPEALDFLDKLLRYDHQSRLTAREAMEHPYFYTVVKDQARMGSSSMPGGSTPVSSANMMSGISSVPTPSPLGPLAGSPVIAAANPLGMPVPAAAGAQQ

Study 1
SMILES: CC(C)n1cnc(-c2ccc(F)cc2)c1-c1ncc(C(=O)Nc2ccc(N3CCN(C)CC3)cc2)[nH]1
phase 2a trial; idiopathic pulmonary fibrosis patients; oral, 30 mg once daily, blood/lymphatic disorders, grade 2 — “patients with TEAE”: 0%.
measured: endocrine disorders; idiopathic pulmonary fibrosis patients; 30 mg once daily — “patients with TEAE”: 0%.
For measured: eye swelling; idiopathic pulmonary fibrosis patients; 60 mg once daily: “patients with TEAE” read 0%.
The “patients with TEAE” was 0% (phase 2a trial; idiopathic pulmonary fibrosis patients; oral, 30 mg once daily, urine red cells, grade 2).
For phase 2a trial; patients with idiopathic pulmonary fibrosis; 30 mg once daily, renal and urinary disorders SOC, grade 3: “patients with TEAE” read 0%.
phase 2a trial; idiopathic pulmonary fibrosis patients; oral, 60 mg once daily, musculoskeletal disorders, grade 1 — “patients with TEAE”: 0%.
phase 2a trial; idiopathic pulmonary fibrosis patients; oral, dose not given, LDL increased, grade 3, all arms — “patients with TEAE”: 0%.
For phase 2a trial; patients with idiopathic pulmonary fibrosis; 30 mg once daily, nervous system disorders SOC, grade 2: “patients with TEAE” read 0%.
For phase 2a trial; patients with idiopathic pulmonary fibrosis; 60 mg once daily, nervous system disorders SOC, grade 5: “patients with TEAE” read 0%.
The “patients with TEAE” was 0% (phase 2a trial; idiopathic pulmonary fibrosis patients; oral, 60 mg once daily, blood/lymphatic disorders, grade 5).
The “patients with TEAE” was 0% (phase 2a trial; idiopathic pulmonary fibrosis patients; oral, 60 mg once daily, LDL increased, grade 5).
The “patients with TEAE” was 0% (phase 2a trial; patients with idiopathic pulmonary fibrosis; 30 mg once daily, free thyroxine decreased, grade 1).
The “patients with TEAE” was 0% (phase 2a trial; idiopathic pulmonary fibrosis patients; oral, 30 mg once daily, GLDH increased, grade 4).
phase 2a trial; idiopathic pulmonary fibrosis patients; oral, 30 mg once daily, musculoskeletal disorders, grade 4 — “patients with TEAE”: 0%.
phase 2a trial; patients with idiopathic pulmonary fibrosis; 30 mg once daily, skin papilloma, maximum intensity grade 3 — “patients with TEAE”: 0%.
The “patients with TEAE” was 0% (phase 2a trial; idiopathic pulmonary fibrosis patients; oral, 60 mg once daily, GLDH increased, grade 5).

Study 2
Target: 5-hydroxytryptamine receptor 7 (HTR7, Homo sapiens, UniProt P34969)
Chain of UniProt P34969 (whole entry, looked up): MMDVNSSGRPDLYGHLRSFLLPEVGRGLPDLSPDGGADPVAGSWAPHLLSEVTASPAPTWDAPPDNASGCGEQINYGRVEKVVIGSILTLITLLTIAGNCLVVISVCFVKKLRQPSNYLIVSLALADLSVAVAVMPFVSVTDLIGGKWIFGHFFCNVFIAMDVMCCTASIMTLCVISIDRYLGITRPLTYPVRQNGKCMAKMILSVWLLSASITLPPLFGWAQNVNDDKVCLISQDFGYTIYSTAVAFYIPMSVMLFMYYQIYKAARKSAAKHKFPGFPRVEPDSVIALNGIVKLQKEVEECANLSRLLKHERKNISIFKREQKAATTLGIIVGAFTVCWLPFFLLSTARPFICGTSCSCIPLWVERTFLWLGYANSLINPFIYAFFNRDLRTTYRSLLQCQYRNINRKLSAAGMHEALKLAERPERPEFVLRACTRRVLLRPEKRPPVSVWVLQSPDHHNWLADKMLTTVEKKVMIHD
Read-out: binding
Method: radioligand binding
Concentration: 10 µM
For `Cc1cc(-n2nc(Cc3cc(F)cc(C(F)(F)F)c3)nc2C)ccc1C(N)=O`, the inhibition was 21.4%.
With `CN1CCN(C(=O)C(C)(C)c2ccc(C(=O)Nc3cn4cc(-c5ccncc5)ccc4n3)cc2)CC1` the inhibition was -5.21%.
`CCOCCn1cc(C(=O)Nc2ccc(-n3nc(-c4cccnc4)cc3C(F)(F)F)cn2)ccc1=O` has an inhibition of -4.22%.
For `O=C(Nc1ccc(-n2nc(-c3cccnc3)cc2C(F)(F)F)cn1)c1ccc(-c2ccccc2)c(F)c1`, the inhibition was 6.21%.
With `CNC(=O)c1ccc(Nc2ncc(C(F)(F)F)c(NCc3nccnc3N(C)S(C)(=O)=O)n2)cc1` the inhibition was 5.31%.
`COCCc1ccc(-c2c(C)nc3c(N4CCOCC4)ccnn23)cn1` gave an inhibition of 96.1%.
With `CN(C)C(=O)Cn1cc(-c2nc([C@@](C)(c3ccc(-c4cnc(N)nc4)cc3)C3CC3)no2)cn1` the inhibition was -27.7%.
With `CN([C@@H]1CCc2c(CC(=O)O)c3cc(S(C)(=O)=O)ccc3n2C1)S(=O)(=O)c1ccc(F)cc1` the inhibition was -3.44%.
`C[C@H](NC(=O)c1cnc2n1[C@](C)(Cc1ccc(C#N)cc1)C(=O)N2c1cc(Cl)c(F)c(Cl)c1)C(=O)NC1(c2ccccn2)CC1` has an inhibition of -4.31%.
`COCc1nc2cnc3cc(-c4c(C)noc4C)c(OC[C@H]4CCNC4)cc3c2n1[C@H](C)c1ccccc1` has an inhibition of -5.39%.
For `CC(=O)c1c(NS(C)(=O)=O)c2cc(-c3ccc(Cl)cc3)c(-c3ccc(Cl)cc3Cl)nc2n(C)c1=O`, the inhibition was -18%.
The inhibition of `O=C(O)c1cc(-c2ccc(C3CCNCC3)cc2)c2ccc(-c3ccc(C(F)(F)F)cc3)cc2c1` is reported as 17.8%.
For `CC(C)CC(=O)N1CCc2nc(-c3ccc(Br)cc3)nc(N(C)Cc3ccccc3)c2C1`, the inhibition was 64.5%.

Study 3
Target: Beta-1 adrenergic receptor (ADRB1, Homo sapiens, UniProt P08588)
Chain of UniProt P08588 (whole entry, looked up): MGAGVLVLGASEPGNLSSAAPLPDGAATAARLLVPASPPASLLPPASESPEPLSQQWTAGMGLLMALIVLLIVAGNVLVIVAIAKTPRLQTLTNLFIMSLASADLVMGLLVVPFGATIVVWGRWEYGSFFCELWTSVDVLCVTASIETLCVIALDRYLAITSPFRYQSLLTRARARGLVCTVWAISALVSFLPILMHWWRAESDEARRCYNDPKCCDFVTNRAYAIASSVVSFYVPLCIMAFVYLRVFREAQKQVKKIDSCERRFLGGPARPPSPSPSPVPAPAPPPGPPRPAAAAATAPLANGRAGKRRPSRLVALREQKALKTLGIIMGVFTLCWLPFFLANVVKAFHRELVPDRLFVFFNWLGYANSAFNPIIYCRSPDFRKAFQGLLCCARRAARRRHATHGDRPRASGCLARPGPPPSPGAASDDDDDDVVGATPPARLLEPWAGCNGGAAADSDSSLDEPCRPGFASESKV
Action: agonist
For `CN(C)c1ccc(/C=C/C2=CC(/C=C/c3ccc(N(C)C)cc3)=[O+][B-](F)(F)O2)cc1`, the EC50 was ≥ 100 µM.
The EC50 of `Cc1cccc(-c2n[nH]cc2-c2ccnc3ccccc23)n1` is reported as ≥ 100 µM.
With `c1cc(-c2cc3c(ccn3Cc3ccncc3)c(N3CCOCC3)n2)cc(N2CCOCC2)c1` the EC50 was ≥ 100 µM.
`CN(C(=O)c1sc2nc(-c3cccs3)cc(C(F)(F)F)c2c1N)c1ccc(F)cc1` gave an EC50 of ≥ 100 µM.
With `Cc1noc2c(NC(C)C)cc(-c3ccccc3)nc12` the EC50 was ≥ 100 µM.
`O=C1OC2(c3ccc(O)cc3Oc3cc(O)ccc32)c2ccc(N=C=S)cc21` has an EC50 of ≥ 100 µM.
For `O=[S+]([O-])(NCc1cccc2ccccc12)c1cc(Cl)c(Oc2cccc(N3CCNCC3)c2)s1`, the EC50 was ≥ 100 µM.
`O=C(O)COc1ccc(-c2nccc3c2C(=O)N(Cc2c[nH]c4ccccc24)CC(COc2cccc(N4CCOCC4)c2)O3)cc1` (stereo not drawn) has an EC50 of ≥ 100 µM.
For `CCc1ccc([S+](=O)([O-])N2CCN(c3ccccc3OC)CC2)cc1`, the EC50 was ≥ 100 µM.
For `CN(C)c1cccc(-c2nccc3c(=O)cc(N(C)C4CCOCC4)oc23)c1`, the EC50 was ≥ 100 µM.
With `COc1ccccc1N1CCC(CNC(=O)c2ccc(C)s2)C1` (stereo not drawn) the EC50 was ≥ 100 µM.

Study 4
Structure (SMILES): CC(=O)c1ccc(N2CCOCC2)cc1O
Read-out: enzyme activity
Action: inhibitor
Concentration: 0.5 µM
Relative to: control
The remaining activity was 103% (Serine/threonine-protein kinase Chk1 (CHEK1, Homo sapiens, UniProt O14757)).
The remaining activity was 101% (Serine/threonine-protein kinase WNK2 (WNK2, Homo sapiens, UniProt Q9Y3S1)).
For Interleukin-1 receptor-associated kinase 4 (IRAK4, Homo sapiens, UniProt Q9NWZ3): remaining activity read 120%.
It gave 97.4% for remaining activity (Protein kinase C delta type (PRKCD, Homo sapiens, UniProt Q05655)).
Tyrosine-protein kinase BTK (BTK, Homo sapiens, UniProt Q06187) — remaining activity: 108%.
The remaining activity was 103% (Serine/threonine-protein kinase Nek4 (NEK4, Homo sapiens, UniProt P51957)).
For Mast/stem cell growth factor receptor Kit (KIT, Homo sapiens, UniProt P10721): remaining activity read 102%.
For Casein kinase II subunit alpha (CSNK2A1, Homo sapiens, UniProt P68400): remaining activity read 101%.
For Dual specificity mitogen-activated protein kinase kinase 6 (MAP2K6, Homo sapiens, UniProt P52564): remaining activity read 94.2%.
It gave 106% for remaining activity (Tyrosine-protein kinase Lyn (LYN, Homo sapiens, UniProt P07948)).
For Mitogen-activated protein kinase kinase kinase 10 (MAP3K10, Homo sapiens, UniProt Q02779): remaining activity read 104%.
It gave 100% for remaining activity (cGMP-dependent protein kinase 1 (PRKG1, Homo sapiens, UniProt Q13976)).
For Mitogen-activated protein kinase 12 (MAPK12, Homo sapiens, UniProt P53778): remaining activity read 78.7%.
It gave 116% for remaining activity (Mitogen-activated protein kinase kinase kinase kinase 2 (MAP4K2, Homo sapiens, UniProt Q12851)).
The remaining activity was 104% (Serine/threonine-protein kinase PLK2 (PLK2, Homo sapiens, UniProt Q9NYY3)).
For Cyclin-dependent kinase 9, with cyclin T1 (CDK9, Homo sapiens, UniProt P50750): remaining activity read 100%.
The remaining activity was 96.3% (Protein kinase C iota type (PRKCI, Homo sapiens, UniProt P41743)).
Mitogen-activated protein kinase 13 (MAPK13, Homo sapiens, UniProt O15264) — remaining activity: 104%.
For Ephrin type-A receptor 5 (EPHA5, Homo sapiens, UniProt P54756): remaining activity read 109%.
The remaining activity was 110% (Casein kinase I isoform alpha (CSNK1A1, Homo sapiens, UniProt P48729)).
RAC-gamma serine/threonine-protein kinase (AKT3, Homo sapiens, UniProt Q9Y243) — remaining activity: 107%.
For Leucine-rich repeat serine/threonine-protein kinase 2 (LRRK2, Homo sapiens, UniProt Q5S007): remaining activity read 96.1%.
It gave 90.7% for remaining activity (MAP kinase-interacting serine/threonine-protein kinase 2 (MKNK2, Homo sapiens, UniProt Q9HBH9)).

Excerpt of the above (study 1):
phase 2a trial; idiopathic pulmonary fibrosis patients; oral, dose not given, LDL increased, grade 3, all arms — “patients with TEAE”: 0%.
For phase 2a trial; patients with idiopathic pulmonary fibrosis; 30 mg once daily, nervous system disorders SOC, grade 2: “patients with TEAE” read 0%.
For phase 2a trial; patients with idiopathic pulmonary fibrosis; 60 mg once daily, nervous system disorders SOC, grade 5: “patients with TEAE” read 0%.
The “patients with TEAE” was 0% (phase 2a trial; idiopathic pulmonary fibrosis patients; oral, 60 mg once daily, blood/lymphatic disorders, grade 5).
The “patients with TEAE” was 0% (phase 2a trial; idiopathic pulmonary fibrosis patients; oral, 60 mg once daily, LDL increased, grade 5).
The “patients with TEAE” was 0% (phase 2a trial; patients with idiopathic pulmonary fibrosis; 30 mg once daily, free thyroxine decreased, grade 1).
The “patients with TEAE” was 0% (phase 2a trial; idiopathic pulmonary fibrosis patients; oral, 30 mg once daily, GLDH increased, grade 4).
phase 2a trial; idiopathic pulmonary fibrosis patients; oral, 30 mg once daily, musculoskeletal disorders, grade 4 — “patients with TEAE”: 0%.
phase 2a trial; patients with idiopathic pulmonary fibrosis; 30 mg once daily, skin papilloma, maximum intensity grade 3 — “patients with TEAE”: 0%.
The “patients with TEAE” was 0% (phase 2a trial; idiopathic pulmonary fibrosis patients; oral, 60 mg once daily, GLDH increased, grade 5).
